Measured values of several laboratories.
Every numbered part comes from another study and shows a few of its results, in no order.

Series 1
Target: Sal-like protein 4, full length isoform B (SALL4, Homo sapiens, UniProt Q9UJQ4-2, residues 1-616)
Method: universal PBM
Form: double-stranded DNA, one strand shown
Sample: in vitro
Tested at: not given
Setting: 8-mer, flanks averaged, mean of replicates
Direction: higher = stronger binding
Oligonucleotide | E-score
ATGAAATA | 0.313
AGCAGGCC | -0.296
GGGAGATA | 0.131
CGAGGTCC | -0.318
GACTGCGC | -0.141
GATAACGA | 0.181

Series 2
Target: Ras GTPase-activating protein-binding protein 1, full length (G3BP1, Homo sapiens, UniProt Q13283)
Sequence of UniProt Q13283 (whole entry, looked up): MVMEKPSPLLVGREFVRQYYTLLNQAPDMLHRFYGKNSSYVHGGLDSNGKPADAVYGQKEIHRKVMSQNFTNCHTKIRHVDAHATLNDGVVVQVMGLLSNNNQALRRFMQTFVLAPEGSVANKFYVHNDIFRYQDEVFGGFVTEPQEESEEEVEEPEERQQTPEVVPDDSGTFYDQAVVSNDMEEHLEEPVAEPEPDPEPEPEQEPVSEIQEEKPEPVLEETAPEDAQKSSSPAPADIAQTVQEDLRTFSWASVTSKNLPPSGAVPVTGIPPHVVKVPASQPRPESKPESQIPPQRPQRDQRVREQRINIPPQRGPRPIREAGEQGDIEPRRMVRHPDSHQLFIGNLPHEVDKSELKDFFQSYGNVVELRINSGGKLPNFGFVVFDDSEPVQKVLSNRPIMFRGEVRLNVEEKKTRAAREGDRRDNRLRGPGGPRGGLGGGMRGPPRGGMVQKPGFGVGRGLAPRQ
Method: RNA Bind-n-Seq
Form: RNA
Sample: in vitro
Tested at: 200 nM
Setting: whole 134-nt RNA, ends assumed
With: 150 mM KCl
Relative to: input library
Direction: higher = stronger binding
Oligonucleotide | log2 enrichment
GGGAGUUCUACAGUCCGACGAUCAGUCCUGUGCUACACAUCGUAUGUACCGAAUCAAACCCAAACCCCCAAAUUUUUAAAAAAGUAUUAUGUUACGCCGUUCGGAUCUGCACUUGGAAUUCUCGGGUGUCAAGG | -0.39
GGGAGUUCUACAGUCCGACGAUCCCUGUGCUACACAUCGUAUGUACCGAAUCGGGGAAAAAAGGGAAAAAAGGGAAAAAAGGGAAAGUAUUAUGUUACGCCGUUCGGAUCUGCUGGAAUUCUCGGGUGUCAAGG | -0.563
GGGAGUUCUACAGUCCGACGAUCAGUCCUGUGCUACACAUCGUAUGUACCGAAUCGGUUUUUGGAAAAAAAGGAAAAAGGAAAGUAUUAUGUUACGCCGUUCGGAUCUGCACUUGGAAUUCUCGGGUGUCAAGG | -1.31
GGGAGUUCUACAGUCCGACGAUCAAGUCCUGUGCUACACAUCGUAUGUACCGAAUCGGGUGGGUUUUUUUGGGAAAGGGAAAGUAUUAUGUUACGCCGUUCGGAUCUGCACUUUGGAAUUCUCGGGUGUCAAGG | -0.052

Series 3
Target: Histone acetyltransferase KAT6A, both winged helices, GST fusion (KAT6A, Homo sapiens, UniProt Q92794, residues 1-181)
Method: protein binding microarray
Form: double-stranded DNA, one strand shown
Sample: in vitro
Tested at: not given
Setting: 8-mer, flanks averaged, mean of 2 arrays, mostly near background
Relative to: not given
Direction: higher = stronger binding
Construct (chain): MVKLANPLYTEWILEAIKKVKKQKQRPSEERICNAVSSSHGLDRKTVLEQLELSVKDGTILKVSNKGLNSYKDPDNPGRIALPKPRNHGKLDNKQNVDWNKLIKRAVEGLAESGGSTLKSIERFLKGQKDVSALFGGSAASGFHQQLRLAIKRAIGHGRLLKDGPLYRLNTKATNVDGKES
Oligonucleotide | E-score
CCTCTATC | -0.279
CCTAGCAG | -0.162
CCTGAGAG | -0.244
CGACTTCA | 0.114
CAGTCCTC | -0.149
CCGTTACC | 0.114

Other studies, line by line
Molecule | target | test | system | setting | scale | quantity | result
PhoQ, residues 284 288 289 292 302 303 TSTLRA | PhoP, residues 12 14 15 18 19 AGCRL (Escherichia coli, UniProt P23836) | Sort-seq, measured: YFP reporter | E. coli | PhoQ-PhoP variant library, with: 10 µM Mg2+ | relative to: high Mg2+ state, higher = stronger signaling | fold induction | 1.36
